Measured values from different studies.
Lines come from different studies, so protocols differ. Values joined by “and” are separate records of one study, mostly repeats; a detail may differ. ± gives the spread as reported. ≈ marks a conversion by molar mass, not a printed value.

SMILES	tested on	test	test system	setting	how to read	endpoint	value
Cc1nn(CC(F)(F)F)cc1Nc1nccc(NCCCNC(=O)C2CCC2)n1	403 human wild-type kinases	scanMAX	–	–	PoC below 10	number of kinases bound	1
CSc1cc(Oc2ccnc3[nH]c(=O)cnc23)ccc1NC(=O)Nc1cc(C(C)(C)C)nn1-c1ccccc1	Src family kinases	reverse-phase protein array	patient-derived cell	1 µM, 4 h	relative to: DMSO	phospho-Src family Tyr416/total ratio	0.26
CC(=O)OC[C@H]1O[C@@H]([S-])[C@H](OC(C)=O)[C@@H](OC(C)=O)[C@@H]1OC(C)=O.CCP(CC)CC.[Au+]	Toxoplasma gondii	bradyzoite growth	–	pH 8.2, alkaline-induced bradyzoites	–	EC50	680 nM
[Co+2]	PP2C	enzyme activity	–	concentration not given	–	activity class	active
CC(=O)ON=C1C=CC(=C(C#N)c2ccccc2)C=C1	pig GSK3 alpha/beta	enzyme activity, inhibitor, ADP-Glo	–	20 µM, about MIC, with: ATP 10 µM	–	remaining activity	94%
COc1cccc2c(Nc3ccc4[nH]c(C(=O)N/N=C/c5ccc(SC)cc5)cc4c3)cc(C)nc12	Gal4-VP16	reporter gene, Gal4-VP16 control reporter	–	3 µM	relative to: vehicle	activation	0.76 ± 0.08 fold
Cc1nn(CC(F)(F)F)cc1Nc1ncc(C2CC2)c(NCCc2c[nH]cn2)n1	403 human wild-type kinases	scanMAX	–	–	PoC below 10	number of kinases bound	2
O=c1oc2c(O)c(O)cc3c(=O)oc4c(O)c(O)cc1c4c23	gasdermin E (human)	inhibitor	–	100 µM, 2 h	–	inhibition	78.3%
NS(=O)(=O)c1ccc(CNc2ccnc(Nc3cccc(CN4CCOCC4)c3)n2)cc1	403 human wild-type kinases	scanMAX	–	–	PoC below 10	number of kinases bound	3
O=C(O)/C=C/c1ccc(O)cc1	gasdermin E (human)	inhibitor	–	100 µM, 2 h	–	inhibition	77.1%
OC[C@H]1O[C@@H]2O[C@H]3[C@H](O)[C@@H](O)[C@@H](O[C@H]4[C@H](O)[C@@H](O)[C@@H](O[C@H]5[C@H](O)[C@@H](O)[C@@H](O[C@H]6[C@H](O)[C@@H](O)[C@@H](O[C@H]7[C@H](O)[C@@H](O)[C@@H](O[C@H]8[C@H](O)[C@@H](O)[C@@H](O[C@H]1[C@H](O)[C@H]2O)O[C@@H]8CO)O[C@@H]7CO)O[C@@H]6CO)O[C@@H]5CO)O[C@@H]4CO)O[C@@H]3CO	LuxR	Escherichia coli sensor	–	40 µM	higher = stronger induction	bioluminescence induction	900 ± 55 RLU
c1coc(-c2n[nH]cc2-c2ccnc3ccccc23)c1	YAK1 (Candida albicans)	kinase binding, MIB/MS competition	Candida albicans lysate	1 µM	relative to: DMSO	log2 fold change	-0.4
C=C1C(=O)O[C@H]2[C@H]1CC/C(C)=C/CC[C@@]1(C)O[C@@H]21	Toxoplasma gondii	parasite growth	HFF, bradyzoite, alkaline-induced	–	–	EC50	1640 nM
NS(=O)(=O)c1ccc(CNc2nc(Nc3cccc(CN4CCOCC4)c3)ncc2Br)cc1	403 human wild-type kinases	scanMAX	–	–	PoC below 10	number of kinases bound	19
CC(Nc1nc(N2CCCC2)nc2ccccc12)c1ccccc1 (stereo not drawn)	importin α/β1	cMyc nuclear import, high content imaging	HeLa Kyoto reporter	0.158 µM, 2 h	–	cells with nuclear reporter	83.9%
COC(=O)c1cn(C)c2ccc(-c3cccnc3)cc12	Gal4-VP16	reporter gene, Gal4-VP16 control reporter	–	10 µM	relative to: vehicle	activation	0.9 fold
COC/C(=C/Cc1ccc(OC)cc1)c1ccc(OC)cc1	STAT3	reporter gene, inhibitor	NCI-H460	–	–	IC50	3.21 µg/mL (≈ 10.8 µM)
C=CC(=O)N1[C@H](c2ccc3c(c2)OCO3)c2[nH]c3ccccc3c2C[C@H]1C(=O)NC	PQLC3 Cys135 human	cysteine IA-DTB labelling, covalent inhibitor, MS-ABPP	22Rv1	20 µM, 3 h	–	inhibition	94% and 91%
Cc1nn(CC(F)(F)F)cc1Nc1ncc(C2CC2)c(NCc2ccc(S(N)(=O)=O)cc2)n1	403 human wild-type kinases	scanMAX	–	–	PoC below 10	number of kinases bound	2
O=C(C#Cc1cn(Cc2ccccc2)c(=O)[nH]c1=O)NCc1ccccc1	MMP-8	inhibitor, colorimetric	–	20 µM	–	remaining MMP-8 activity	96 ± 7%
CCN1CCN(c2cc(N3CCN(CC)CC3)nc(NCCNc3ccnc4cc(Cl)ccc34)n2)CC1	Gal4-VP16	reporter gene, Gal4-VP16 control reporter	–	20 µM	relative to: vehicle	activation	1.38 ± 0.24 fold
O=C(Nc1cccc(Nc2ncc(Br)c(NCCc3cnc[nH]3)n2)c1)N1CCCC1	403 human wild-type kinases	scanMAX binding	–	1 µM, hit below 10% of control	relative to: hits over kinases tested, direction not given	selectivity score S10	0.02
Oc1ccccc1-c1n[nH]cc1-c1ccnc2ccccc12	YAK1 (Candida albicans)	kinase binding, MIB/MS competition	Candida albicans lysate	1 µM	relative to: DMSO	log2 fold change	0.26
NS(=O)(=O)c1ccc(CNc2ccnc(Nc3cccc(NC(=O)N4CCCC4)c3)n2)cc1	403 human wild-type kinases	scanMAX binding	–	1 µM, hit below 10% of control	relative to: hits over kinases tested, direction not given	selectivity score S10	0.002
[Zn+2]	PP2C	enzyme activity	–	concentration not given	–	activity class	inactive
NS(=O)(=O)c1ccc(CNc2nc(Nc3cccc(NC(=O)N4CCCC4)c3)ncc2Br)cc1	403 human wild-type kinases	scanMAX binding	–	1 µM, hit below 10% of control	relative to: hits over kinases tested, direction not given	selectivity score S10	0.03
CCCCCCCC(=O)OC[C@H](COP(=O)(O)O[C@@H]1[C@H](O)[C@H](O)[C@@H](OP(=O)(O)O)[C@H](OP(=O)(O)O)[C@H]1O)OC(=O)CCCCCCC	Kv7.2/Kv7.3(EEE) mutant channel	channel activation, activator, activation curve fit	–	model 3	–	maximal open probability	0.358

Repeated from above:
SMILES	tested on	test	test system	setting	how to read	endpoint	value
C=C1C(=O)O[C@H]2[C@H]1CC/C(C)=C/CC[C@@]1(C)O[C@@H]21	Toxoplasma gondii	parasite growth	HFF, bradyzoite, alkaline-induced	–	–	EC50	1640 nM
NS(=O)(=O)c1ccc(CNc2nc(Nc3cccc(CN4CCOCC4)c3)ncc2Br)cc1	403 human wild-type kinases	scanMAX	–	–	PoC below 10	number of kinases bound	19
